Measured values of several laboratories.
Protocols differ between the studies behind these lines. Values joined by “and” are separate records of one study, mostly repeats; a detail may differ. ± gives the spread as reported.
GP1 NS2B-NS3 protease: Genome polyprotein, NS2B-NS3 protease (GP1, West Nile virus, UniProt Q9Q6P4)
nadD: Probable nicotinate-nucleotide adenylyltransferase (nadD, Mycobacterium tuberculosis, UniProt P9WJJ5)
Sequence of UniProt P9WJJ5 (whole entry, looked up): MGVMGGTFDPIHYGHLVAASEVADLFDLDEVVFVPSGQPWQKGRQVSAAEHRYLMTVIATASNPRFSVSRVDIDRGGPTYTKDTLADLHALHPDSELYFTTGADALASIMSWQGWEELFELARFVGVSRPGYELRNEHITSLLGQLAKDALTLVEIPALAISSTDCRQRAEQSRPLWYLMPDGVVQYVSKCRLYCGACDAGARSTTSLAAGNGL
mtnN: 5'-methylthioadenosine/S-adenosylhomocysteine nucleosidase (mtnN, Salmonella choleraesuis, UniProt Q57T48)
Sequence of UniProt Q57T48 (whole entry, looked up): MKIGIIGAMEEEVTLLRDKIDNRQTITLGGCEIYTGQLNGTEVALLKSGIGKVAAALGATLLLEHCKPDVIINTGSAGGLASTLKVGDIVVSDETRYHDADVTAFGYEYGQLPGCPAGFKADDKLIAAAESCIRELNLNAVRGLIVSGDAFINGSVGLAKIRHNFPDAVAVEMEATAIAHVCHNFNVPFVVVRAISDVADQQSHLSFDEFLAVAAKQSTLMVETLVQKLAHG
Sequence of UniProt Q9UHM6 (whole entry, looked up): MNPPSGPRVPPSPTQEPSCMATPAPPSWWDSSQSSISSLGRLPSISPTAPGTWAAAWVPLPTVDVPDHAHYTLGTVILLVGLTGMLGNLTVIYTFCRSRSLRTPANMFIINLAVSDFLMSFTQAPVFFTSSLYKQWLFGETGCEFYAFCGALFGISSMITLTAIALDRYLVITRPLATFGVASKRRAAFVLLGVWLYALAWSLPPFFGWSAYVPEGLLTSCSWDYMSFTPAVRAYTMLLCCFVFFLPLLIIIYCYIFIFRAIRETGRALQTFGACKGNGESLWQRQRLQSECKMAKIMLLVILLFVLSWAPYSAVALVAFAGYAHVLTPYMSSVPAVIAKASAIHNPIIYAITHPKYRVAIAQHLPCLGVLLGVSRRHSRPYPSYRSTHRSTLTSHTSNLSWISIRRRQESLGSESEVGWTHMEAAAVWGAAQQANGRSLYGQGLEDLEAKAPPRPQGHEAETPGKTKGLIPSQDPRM
Sequence of UniProt Q9LCT3 (whole entry, looked up): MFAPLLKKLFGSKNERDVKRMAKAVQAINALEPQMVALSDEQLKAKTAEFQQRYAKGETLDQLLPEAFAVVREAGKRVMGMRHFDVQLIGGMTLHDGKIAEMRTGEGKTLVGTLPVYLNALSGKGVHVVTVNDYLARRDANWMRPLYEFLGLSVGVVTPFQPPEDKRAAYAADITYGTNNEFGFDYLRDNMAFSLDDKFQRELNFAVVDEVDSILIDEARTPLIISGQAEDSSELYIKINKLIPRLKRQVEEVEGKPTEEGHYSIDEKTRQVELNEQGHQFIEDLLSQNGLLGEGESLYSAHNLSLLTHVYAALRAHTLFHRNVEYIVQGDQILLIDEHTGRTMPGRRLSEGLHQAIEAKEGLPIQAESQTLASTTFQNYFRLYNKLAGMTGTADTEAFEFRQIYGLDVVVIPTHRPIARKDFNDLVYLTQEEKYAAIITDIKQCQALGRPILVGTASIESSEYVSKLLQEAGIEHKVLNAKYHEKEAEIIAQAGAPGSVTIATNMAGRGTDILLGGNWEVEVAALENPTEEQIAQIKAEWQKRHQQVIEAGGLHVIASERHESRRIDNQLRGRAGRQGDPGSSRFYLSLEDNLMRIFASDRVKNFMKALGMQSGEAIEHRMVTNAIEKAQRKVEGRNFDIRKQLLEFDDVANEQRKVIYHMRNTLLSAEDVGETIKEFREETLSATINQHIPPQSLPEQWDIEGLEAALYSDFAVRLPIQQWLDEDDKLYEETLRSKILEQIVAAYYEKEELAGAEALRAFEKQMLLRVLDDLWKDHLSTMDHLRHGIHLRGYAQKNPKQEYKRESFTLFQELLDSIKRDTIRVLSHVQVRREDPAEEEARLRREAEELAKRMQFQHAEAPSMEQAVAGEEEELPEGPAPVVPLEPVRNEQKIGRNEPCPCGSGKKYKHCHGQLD
Sequence of UniProt Q04206 (whole entry, looked up): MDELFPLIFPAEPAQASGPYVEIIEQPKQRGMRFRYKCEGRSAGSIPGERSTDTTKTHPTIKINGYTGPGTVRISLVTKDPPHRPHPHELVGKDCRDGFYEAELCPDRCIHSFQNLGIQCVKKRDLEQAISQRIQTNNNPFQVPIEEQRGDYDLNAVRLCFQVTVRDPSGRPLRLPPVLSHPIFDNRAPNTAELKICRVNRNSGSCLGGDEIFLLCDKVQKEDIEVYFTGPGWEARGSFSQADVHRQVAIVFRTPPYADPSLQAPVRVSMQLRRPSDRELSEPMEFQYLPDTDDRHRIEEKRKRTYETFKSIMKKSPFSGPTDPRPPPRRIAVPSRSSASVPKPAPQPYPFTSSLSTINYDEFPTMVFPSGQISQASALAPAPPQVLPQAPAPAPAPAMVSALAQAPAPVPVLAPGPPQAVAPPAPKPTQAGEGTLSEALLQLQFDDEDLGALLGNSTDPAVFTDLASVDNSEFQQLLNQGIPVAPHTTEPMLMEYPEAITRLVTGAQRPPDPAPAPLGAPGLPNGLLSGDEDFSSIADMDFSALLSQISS
Sequence of UniProt P31645 (whole entry, unmodified, looked up): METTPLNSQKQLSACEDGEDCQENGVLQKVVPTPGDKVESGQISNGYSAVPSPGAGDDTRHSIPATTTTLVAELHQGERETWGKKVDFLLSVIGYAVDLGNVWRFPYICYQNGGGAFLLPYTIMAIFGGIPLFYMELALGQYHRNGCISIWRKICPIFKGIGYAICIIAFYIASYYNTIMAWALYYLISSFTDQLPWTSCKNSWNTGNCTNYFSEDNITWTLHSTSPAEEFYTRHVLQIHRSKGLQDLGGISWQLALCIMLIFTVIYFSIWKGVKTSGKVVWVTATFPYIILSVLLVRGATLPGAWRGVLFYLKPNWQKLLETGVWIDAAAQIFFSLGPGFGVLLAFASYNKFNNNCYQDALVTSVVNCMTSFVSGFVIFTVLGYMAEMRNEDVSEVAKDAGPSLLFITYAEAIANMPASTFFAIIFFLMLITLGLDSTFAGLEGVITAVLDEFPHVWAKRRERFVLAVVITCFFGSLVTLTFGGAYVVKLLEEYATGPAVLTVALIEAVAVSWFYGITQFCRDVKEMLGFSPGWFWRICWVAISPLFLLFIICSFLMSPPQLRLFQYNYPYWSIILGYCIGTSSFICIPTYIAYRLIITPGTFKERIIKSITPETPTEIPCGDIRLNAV

Substance | target or system | test | system | setting | how to read | measurement | result
Clc1cc(OCc2nnc3sc(Cc4ccccc4)nn23)c(Cl)cc1OCc1nnc2sc(Cc3ccccc3)nn12 | GP1 NS2B-NS3 protease | enzyme activity, inhibitor |  | pH 8.0, together with: 20 µM Pyr-RTKR-AMC |  | IC50 | 440 nM
C[C@H]1CNCCc2ccc(Cl)cc21 |  |  | male Sprague-Dawley rat, plasma | subcutaneous, pimavanserin 1 + lorcaserin 1 mg/kg, pimavanserin 15 min earlier |  | AUC(0-t) | 48.9 ± 2.71 ng·h/mL
CCc1nnc(NC(=O)c2cn(CC)c3cc(N4CCN(C(=O)c5ccco5)CC4)c(F)cc3c2=O)s1 | nadD | enzyme activity, inhibitor, released pyrophosphate |  |  |  | IC50 | > 50000 nM
Nc1ncnc2c(CN3CC(O)C(CSCCOCCO)C3)c[nH]c12 (centres unmarked) | mtnN | enzyme activity, slow-onset inhibitor | Salmonella enterica |  |  | Ki | 0.005 ± 0.0007 nM
Fc1cc(C2=Nn3c(COc4ccc(Cl)cc4Cl)nnc3S/C2=C\c2ccc(-c3ccc(Cl)cc3)o2)c(Cl)cc1Cl | GP1 NS2B-NS3 protease | enzyme activity, inhibitor |  | pH 8.0, together with: 20 µM Pyr-RTKR-AMC |  | IC50 | 3460 nM
Cn1c(=O)c(-c2c(Cl)cccc2Cl)cc2cnc(Nc3ccc(N4CCOCC4)cc3)nc21 | HEK293T | PGC-1α/ERRα reporter gene, agonist, qHTS luciferase |  |  |  | EC50 | 50 nM
CN[C@@](C)(C[18F])C(=O)O | MDA-MB-468 tumour model |  | host not given, heart | 30 min, tumour-bearing |  | tracer uptake | 3.6 %ID/g
glucagon |  | binding, SPR (Biacore) | immobilized peptide | rabbit mAb mixture analyte |  | Kd | 0.07 nM
NC(=O)CCl | HepG2 ARE-bla | ARE reporter gene |  | 16 h | reference: 23 µM beta-naphthoflavone | EC50 | 9470 nM
CCn1cc(C(=O)Nc2nc3ccccc3s2)c(=O)c2cc(F)c(N3CCN(C(=O)c4ccco4)CC3)cc21 | nadD | enzyme activity, inhibitor, released pyrophosphate |  |  |  | IC50 | > 100000 nM
CC[C@H](C)[C@H](NC(=O)[C@@H](CCCNC(=N)N)NC(=O)[C@H](CCCNC(=N)N)NC(=O)[C@@H]1CCCN1C(=O)[C@@H]1CCCN1C(=O)[C@H](CCCNC(=N)N)NC(=O)[C@@H]1CCCN1C(=O)[C@H](CCCNC(=N)N)NC(=O)[C@@H]1CCCN1C(=O)[C@H](CC(C)C)NC(=O)[C@H](Cc1ccc(O)cc1)NC(=O)[C@@H]1CCCN1C(=O)[C@@H]1CCCN1C(=O)[C@H](CCCCN)NC(=O)[C@H](CC(=O)O)NC(=O)[C@@H](N)C(C)C)C(=O)N[C@@H](Cc1ccc(O)cc1)C(=O)N[C@@H](CC(N)=O)C(=O)N[C@H](CCCNC(=N)N)C(N)=O |  | binding, fluorescence polarization | 70S ribosome, Klebsiella pneumoniae ATCC 10031 | 90 min, pH 7.6, 28 °C, together with: fluorescein-labelled peptide |  | Kd | 77 ± 1 nM
CCn1cc(C(=O)Nc2nnc(C)s2)c(=O)c2cc(F)c(N3CCN(C(=O)c4ccco4)CC3)cc21 | nadD | enzyme activity, inhibitor, released pyrophosphate |  |  |  | IC50 | > 50000 nM
Clc1ccc(-c2nn3c(COc4cccc(OCc5nnc6sc(-c7ccc(Cl)cc7)nn56)c4)nnc3s2)cc1 | GP1 NS2B-NS3 protease | enzyme activity, inhibitor |  | pH 8.0, together with: 20 µM Pyr-RTKR-AMC |  | IC50 | 1260 nM
C=C[C@H]1CN2CC[C@H]1C[C@H]2[C@H](O)c1ccnc2ccccc12 | SLC6A4 (Homo sapiens, UniProt P31645, I172M) | transporter uptake, inhibitor, radiometric |  |  |  | Ki | 36000 nM
NC(=O)CI | HepG2 ARE-bla | ARE reporter gene |  | 16 h | reference: 23 µM beta-naphthoflavone | EC50 | 2050 nM
CCn1cnc2c(Nc3cccc(Cl)c3)nc(N[C@@H]3CCCC[C@@H]3N)nc21 | HeLa expressing ODD-Luc | ODD-Luc degradation, inhibitor, cycloheximide chase luciferase |  |  |  | IC50 | 15000 ± 2000 nM
c1ccc(CCN2CCCCC2)cc1 | alpha-2 adrenergic receptor, rat | binding | rat cerebral cortex | together with: [3H]RX821002 1 nM |  | Ki | > 10000 nM
C=C(C)[C@@H]1CC[C@]2(C(=O)O)CC[C@]3(C)[C@H](CC[C@@H]4[C@@]5(C)CC[C@H](O)C(C)(C)[C@@H]5CC[C@]43C)[C@@H]12 | RELA (Homo sapiens, UniProt Q04206) | NF-κB activity, inhibitor, ELISA | HeLa | 3 h |  | IC50 | 14300 nM
CN[C@H](CC(C)C)C(=O)N[C@H]1C(=O)N[C@@H](CC(N)=O)C(=O)N[C@H]2C(=O)N[C@H]3C(=O)N[C@H](C(=O)N[C@H](C(=O)O)c4cc(O)cc(O)c4-c4cc3ccc4O)[C@H](O)c3ccc(c(Cl)c3)Oc3cc2cc(c3O[C@@H]2O[C@H](CO)[C@@H](O)[C@H](O)[C@H]2O[C@H]2C[C@](C)(N)[C@H](O)[C@H](C)O2)Oc2ccc(cc2Cl)[C@H]1O |  | binding, cantilever surface stress | D-Lac peptide surface | pH 7.4, 25 °C, 0.002% PS80 |  | Kd | 800000 ± 310000 nM
COc1ccc(S(=O)(=O)N2CCCCC2)cc1C | Melanopsin (OPN4, Homo sapiens, UniProt Q9UHM6) | calcium release, antagonist, Schild analysis | CHO cells expressing OPN4 | previously light-exposed cells, together with: 9-cis retinal |  | Kb | 105 nM and 160 nM
C=C[C@@]1(C)COC(=O)[C@]12OC(c1ccccc1)=CC2=O | HIV-1 | viral replication, inhibitor, luciferase reporter | MT2 and TZM-bl cells |  |  | IC50 | 29000 nM
COC(=O)[C@@]1(O)C[C@H]2O[C@]1(C)n1c3ccccc3c3c4c(c5c6ccccc6n2c5c31)C(=O)NC4 | HeLa expressing ODD-Luc | ODD-Luc degradation, inhibitor, cycloheximide chase luciferase |  |  |  | IC50 | 7200 ± 1400 nM
COc1ccc(/C=C/CCCC[C@H](C)[C@H](O)[C@@H](O)[C@H]2NC(=O)CC3(O)NC(=O)CC3NC(=O)C[C@@H](O)CNC(=O)CN(C)C(=O)[C@@H](Cc3c(C(=O)O)[nH]c4ccccc34)NC(=O)CNC(=O)[C@H]2O)cc1 (some centres unmarked) | A549 NF-kB luciferase reporter | reporter gene |  | 6 h, together with: TNF-alpha 100 ng/mL |  | IC50 | 1200 ± 300 nM
CC[C@H](C)[C@H](NC(=O)[C@H](Cc1ccc(O)cc1)NC(=O)[C@@H](NC(=O)[C@@H]1CCCN1C(=O)[C@H](CCCNC(=N)N)NC(=O)[C@H](CC(N)=O)NC(=O)[C@H](CC(N)=O)NC(=O)[C@H](CCCN)N=C(N(C)C)N(C)C)C(C)C)C(=O)N1CCC[C@H]1C(=O)N[C@@H](CCCNC(=N)N)C(=O)N1CCC[C@H]1C(=O)N[C@@H](CCCNC(=N)N)C(=O)N1CCC[C@H]1C(=O)N1CCC[C@H]1C(=O)N[C@@H](Cc1c[nH]cn1)C(=O)N1CCC[C@H]1C(=O)N[C@@H](CCCNC(=N)N)C(=O)N[C@@H](CC(C)C)C(=O)O |  | binding, fluorescence polarization | 70S ribosome, Pseudomonas aeruginosa ATCC 27853 | 90 min, pH 7.6, 28 °C, together with: fluorescein-labelled peptide |  | Kd | 257 ± 8 nM
Nc1ncnc2c(CN3CC(O)C(CSCCO)C3)c[nH]c12 (centres unmarked) | mtnN | enzyme activity, slow-onset inhibitor | Salmonella enterica |  |  | Ki | 0.011 ± 0.0022 nM
O=C1OC2(c3cc(I)c(O)c(I)c3Oc3c2cc(I)c(O)c3I)c2c(Cl)c(Cl)c(Cl)c(Cl)c21 | Protein translocase subunit SecA (secA, Pseudomonas aeruginosa, UniProt Q9LCT3) | SecA channel activity, inhibitor, voltage clamp | Xenopus oocytes | RE-13 membranes |  | IC50 | 300 ± 500 nM

Excerpt of the above:
Substance | target or system | test | system | setting | how to read | measurement | result
CCn1cc(C(=O)Nc2nc3ccccc3s2)c(=O)c2cc(F)c(N3CCN(C(=O)c4ccco4)CC3)cc21 | nadD | enzyme activity, inhibitor, released pyrophosphate |  |  |  | IC50 | > 100000 nM
CC[C@H](C)[C@H](NC(=O)[C@@H](CCCNC(=N)N)NC(=O)[C@H](CCCNC(=N)N)NC(=O)[C@@H]1CCCN1C(=O)[C@@H]1CCCN1C(=O)[C@H](CCCNC(=N)N)NC(=O)[C@@H]1CCCN1C(=O)[C@H](CCCNC(=N)N)NC(=O)[C@@H]1CCCN1C(=O)[C@H](CC(C)C)NC(=O)[C@H](Cc1ccc(O)cc1)NC(=O)[C@@H]1CCCN1C(=O)[C@@H]1CCCN1C(=O)[C@H](CCCCN)NC(=O)[C@H](CC(=O)O)NC(=O)[C@@H](N)C(C)C)C(=O)N[C@@H](Cc1ccc(O)cc1)C(=O)N[C@@H](CC(N)=O)C(=O)N[C@H](CCCNC(=N)N)C(N)=O |  | binding, fluorescence polarization | 70S ribosome, Klebsiella pneumoniae ATCC 10031 | 90 min, pH 7.6, 28 °C, together with: fluorescein-labelled peptide |  | Kd | 77 ± 1 nM
C=C[C@@]1(C)COC(=O)[C@]12OC(c1ccccc1)=CC2=O | HIV-1 | viral replication, inhibitor, luciferase reporter | MT2 and TZM-bl cells |  |  | IC50 | 29000 nM
O=C1OC2(c3cc(I)c(O)c(I)c3Oc3c2cc(I)c(O)c3I)c2c(Cl)c(Cl)c(Cl)c(Cl)c21 | Protein translocase subunit SecA (secA, Pseudomonas aeruginosa, UniProt Q9LCT3) | SecA channel activity, inhibitor, voltage clamp | Xenopus oocytes | RE-13 membranes |  | IC50 | 300 ± 500 nM
